Results from different studies.
Each line is one published result; not all experiments were run side by side. ± gives the spread as reported.
Target: Alpha-glucosidase MAL12 (MAL12, Saccharomyces cerevisiae S288c, UniProt P53341)
Sequence of UniProt P53341 (whole entry, looked up): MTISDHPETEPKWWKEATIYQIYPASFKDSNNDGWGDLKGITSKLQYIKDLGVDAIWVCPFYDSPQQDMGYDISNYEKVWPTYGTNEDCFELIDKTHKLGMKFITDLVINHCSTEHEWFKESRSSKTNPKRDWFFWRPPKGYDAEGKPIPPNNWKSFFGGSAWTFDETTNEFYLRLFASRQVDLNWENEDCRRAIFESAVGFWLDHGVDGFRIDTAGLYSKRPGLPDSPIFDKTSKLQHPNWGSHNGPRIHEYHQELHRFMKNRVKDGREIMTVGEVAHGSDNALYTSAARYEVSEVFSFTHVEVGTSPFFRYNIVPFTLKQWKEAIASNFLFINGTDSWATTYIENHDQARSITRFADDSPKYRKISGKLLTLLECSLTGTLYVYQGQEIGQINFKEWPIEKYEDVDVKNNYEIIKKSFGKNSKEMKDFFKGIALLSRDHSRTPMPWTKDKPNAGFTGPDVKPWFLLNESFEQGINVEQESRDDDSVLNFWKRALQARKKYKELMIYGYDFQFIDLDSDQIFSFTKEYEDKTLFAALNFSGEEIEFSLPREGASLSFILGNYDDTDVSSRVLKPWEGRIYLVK

COc1cccc(NC(=S)N/N=C/c2coc3cc(F)ccc3c2=O)c1
inhibition (enzyme activity, inhibitor; 500 µM): 91.3%

O=C1OC(c2ccccc2)=N/C1=C\c1ccccc1O
Vmax (inhibitor, Lineweaver-Burk; 1600 ppm, added: pNPG substrate): 0.007 mM/min

O=c1ccc2ccc(O)c(Cn3cnc4ccccc43)c2o1
inhibition (inhibitor; 25 µM): 13.3%

COc1cc(O)c2c(c1)oc(=O)c1c3cc(O)c(O)cc3oc21
ΔG (fluorescence quenching; 307 K): -1.7 kcal/mol

Cc1oc2c(Cn3ccnc3)c(O)ccc2c(=O)c1C
inhibition (inhibitor; 25 µM): 26.7%

CCCCCCCCCCCCCCNC(=O)/C=C/c1ccc(O)c(O)c1
remaining activity (enzyme activity; 20 µM, added: α-amylase present): 7.48 ± 6.85%

O=C1OC(c2ccccc2)=N/C1=C\c1ccc(O)cc1
Vmax (inhibitor, Lineweaver-Burk; 1600 ppm, added: pNPG substrate): 1.76 mM/min

Cc1ccc(CNC(=S)N/N=C/c2coc3cc(F)ccc3c2=O)cc1
inhibition (enzyme activity, inhibitor; 500 µM): 90.4%

COc1ccc(-c2coc3c(Cn4nc(C)cc4C)c(O)ccc3c2=O)cc1OC
inhibition (inhibitor; 25 µM): < 0%

O=C1OC(c2ccccc2)=N/C1=C\c1cccc(O)c1
Vmax (inhibitor, Lineweaver-Burk; 3200 ppm, added: pNPG substrate): 0.036 mM/min

Repeated from above:
O=c1ccc2ccc(O)c(Cn3cnc4ccccc43)c2o1
inhibition (inhibitor; 25 µM): 13.3%

Cc1ccc(CNC(=S)N/N=C/c2coc3cc(F)ccc3c2=O)cc1
inhibition (enzyme activity, inhibitor; 500 µM): 90.4%
